Measurements collected from several papers.
A part holds a random share of what one study measured.
UniProt Q9UBS0, sequence (whole entry, looked up): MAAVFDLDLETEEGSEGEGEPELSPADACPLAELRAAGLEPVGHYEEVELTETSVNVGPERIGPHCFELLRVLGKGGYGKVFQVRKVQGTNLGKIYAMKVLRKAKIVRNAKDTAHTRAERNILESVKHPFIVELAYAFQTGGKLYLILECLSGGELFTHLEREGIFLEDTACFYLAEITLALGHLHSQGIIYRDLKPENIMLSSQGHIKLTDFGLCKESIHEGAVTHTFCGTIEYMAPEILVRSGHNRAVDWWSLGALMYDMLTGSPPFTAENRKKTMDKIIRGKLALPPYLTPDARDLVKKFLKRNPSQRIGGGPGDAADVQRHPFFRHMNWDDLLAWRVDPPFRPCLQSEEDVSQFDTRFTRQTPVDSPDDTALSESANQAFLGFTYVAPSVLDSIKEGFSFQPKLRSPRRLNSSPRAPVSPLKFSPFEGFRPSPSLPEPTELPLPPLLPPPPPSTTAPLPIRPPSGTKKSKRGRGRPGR
UniProt Q99986, sequence (whole entry, looked up): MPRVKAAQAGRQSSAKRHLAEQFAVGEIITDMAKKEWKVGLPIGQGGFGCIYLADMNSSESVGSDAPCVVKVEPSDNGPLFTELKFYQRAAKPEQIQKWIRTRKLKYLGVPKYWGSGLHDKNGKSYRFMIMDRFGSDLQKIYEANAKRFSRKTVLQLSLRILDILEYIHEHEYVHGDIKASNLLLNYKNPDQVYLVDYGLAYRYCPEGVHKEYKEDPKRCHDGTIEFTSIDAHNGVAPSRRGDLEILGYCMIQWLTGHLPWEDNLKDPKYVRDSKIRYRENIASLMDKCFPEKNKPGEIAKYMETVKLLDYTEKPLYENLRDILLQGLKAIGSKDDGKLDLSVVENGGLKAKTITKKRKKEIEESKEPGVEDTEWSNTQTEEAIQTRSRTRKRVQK
UniProt P10398, sequence (whole entry, looked up): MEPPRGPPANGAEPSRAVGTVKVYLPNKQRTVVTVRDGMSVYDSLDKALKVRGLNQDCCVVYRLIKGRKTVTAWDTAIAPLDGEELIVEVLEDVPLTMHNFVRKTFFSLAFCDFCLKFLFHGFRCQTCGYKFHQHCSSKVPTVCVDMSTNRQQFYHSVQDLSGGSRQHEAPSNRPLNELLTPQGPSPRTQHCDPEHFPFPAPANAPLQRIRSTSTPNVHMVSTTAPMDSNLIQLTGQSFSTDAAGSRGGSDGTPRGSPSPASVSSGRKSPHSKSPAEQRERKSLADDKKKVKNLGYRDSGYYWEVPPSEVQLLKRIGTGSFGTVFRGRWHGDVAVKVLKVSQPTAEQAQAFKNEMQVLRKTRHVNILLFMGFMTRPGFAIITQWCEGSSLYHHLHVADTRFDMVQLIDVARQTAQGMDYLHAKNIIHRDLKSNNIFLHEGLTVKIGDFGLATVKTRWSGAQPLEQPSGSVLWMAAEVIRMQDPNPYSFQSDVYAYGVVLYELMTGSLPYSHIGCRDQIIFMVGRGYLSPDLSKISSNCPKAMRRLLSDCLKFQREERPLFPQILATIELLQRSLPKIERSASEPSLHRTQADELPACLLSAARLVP
UniProt Q9NR20, sequence (whole entry, looked up): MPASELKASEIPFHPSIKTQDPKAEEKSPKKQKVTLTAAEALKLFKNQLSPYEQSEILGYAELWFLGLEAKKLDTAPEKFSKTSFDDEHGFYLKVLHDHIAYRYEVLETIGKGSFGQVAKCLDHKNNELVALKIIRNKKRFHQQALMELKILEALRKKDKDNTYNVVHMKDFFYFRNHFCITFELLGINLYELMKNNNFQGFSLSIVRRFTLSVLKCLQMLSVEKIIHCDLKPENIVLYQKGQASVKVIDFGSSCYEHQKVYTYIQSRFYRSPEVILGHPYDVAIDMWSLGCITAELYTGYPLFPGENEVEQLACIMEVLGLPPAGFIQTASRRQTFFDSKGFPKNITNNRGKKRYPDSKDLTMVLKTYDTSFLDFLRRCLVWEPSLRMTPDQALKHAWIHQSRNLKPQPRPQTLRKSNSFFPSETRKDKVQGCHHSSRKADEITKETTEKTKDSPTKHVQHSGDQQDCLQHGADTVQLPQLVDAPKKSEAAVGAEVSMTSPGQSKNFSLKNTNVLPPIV

Series 1 — observed: enzyme activity; action: inhibitor; concentration: 77 µM; baseline: untreated
Target: DNA polymerase theta, ATPase domain (POLQ, Homo sapiens, UniProt O75417)
UniProt O75417, sequence (whole entry, unmodified, looked up): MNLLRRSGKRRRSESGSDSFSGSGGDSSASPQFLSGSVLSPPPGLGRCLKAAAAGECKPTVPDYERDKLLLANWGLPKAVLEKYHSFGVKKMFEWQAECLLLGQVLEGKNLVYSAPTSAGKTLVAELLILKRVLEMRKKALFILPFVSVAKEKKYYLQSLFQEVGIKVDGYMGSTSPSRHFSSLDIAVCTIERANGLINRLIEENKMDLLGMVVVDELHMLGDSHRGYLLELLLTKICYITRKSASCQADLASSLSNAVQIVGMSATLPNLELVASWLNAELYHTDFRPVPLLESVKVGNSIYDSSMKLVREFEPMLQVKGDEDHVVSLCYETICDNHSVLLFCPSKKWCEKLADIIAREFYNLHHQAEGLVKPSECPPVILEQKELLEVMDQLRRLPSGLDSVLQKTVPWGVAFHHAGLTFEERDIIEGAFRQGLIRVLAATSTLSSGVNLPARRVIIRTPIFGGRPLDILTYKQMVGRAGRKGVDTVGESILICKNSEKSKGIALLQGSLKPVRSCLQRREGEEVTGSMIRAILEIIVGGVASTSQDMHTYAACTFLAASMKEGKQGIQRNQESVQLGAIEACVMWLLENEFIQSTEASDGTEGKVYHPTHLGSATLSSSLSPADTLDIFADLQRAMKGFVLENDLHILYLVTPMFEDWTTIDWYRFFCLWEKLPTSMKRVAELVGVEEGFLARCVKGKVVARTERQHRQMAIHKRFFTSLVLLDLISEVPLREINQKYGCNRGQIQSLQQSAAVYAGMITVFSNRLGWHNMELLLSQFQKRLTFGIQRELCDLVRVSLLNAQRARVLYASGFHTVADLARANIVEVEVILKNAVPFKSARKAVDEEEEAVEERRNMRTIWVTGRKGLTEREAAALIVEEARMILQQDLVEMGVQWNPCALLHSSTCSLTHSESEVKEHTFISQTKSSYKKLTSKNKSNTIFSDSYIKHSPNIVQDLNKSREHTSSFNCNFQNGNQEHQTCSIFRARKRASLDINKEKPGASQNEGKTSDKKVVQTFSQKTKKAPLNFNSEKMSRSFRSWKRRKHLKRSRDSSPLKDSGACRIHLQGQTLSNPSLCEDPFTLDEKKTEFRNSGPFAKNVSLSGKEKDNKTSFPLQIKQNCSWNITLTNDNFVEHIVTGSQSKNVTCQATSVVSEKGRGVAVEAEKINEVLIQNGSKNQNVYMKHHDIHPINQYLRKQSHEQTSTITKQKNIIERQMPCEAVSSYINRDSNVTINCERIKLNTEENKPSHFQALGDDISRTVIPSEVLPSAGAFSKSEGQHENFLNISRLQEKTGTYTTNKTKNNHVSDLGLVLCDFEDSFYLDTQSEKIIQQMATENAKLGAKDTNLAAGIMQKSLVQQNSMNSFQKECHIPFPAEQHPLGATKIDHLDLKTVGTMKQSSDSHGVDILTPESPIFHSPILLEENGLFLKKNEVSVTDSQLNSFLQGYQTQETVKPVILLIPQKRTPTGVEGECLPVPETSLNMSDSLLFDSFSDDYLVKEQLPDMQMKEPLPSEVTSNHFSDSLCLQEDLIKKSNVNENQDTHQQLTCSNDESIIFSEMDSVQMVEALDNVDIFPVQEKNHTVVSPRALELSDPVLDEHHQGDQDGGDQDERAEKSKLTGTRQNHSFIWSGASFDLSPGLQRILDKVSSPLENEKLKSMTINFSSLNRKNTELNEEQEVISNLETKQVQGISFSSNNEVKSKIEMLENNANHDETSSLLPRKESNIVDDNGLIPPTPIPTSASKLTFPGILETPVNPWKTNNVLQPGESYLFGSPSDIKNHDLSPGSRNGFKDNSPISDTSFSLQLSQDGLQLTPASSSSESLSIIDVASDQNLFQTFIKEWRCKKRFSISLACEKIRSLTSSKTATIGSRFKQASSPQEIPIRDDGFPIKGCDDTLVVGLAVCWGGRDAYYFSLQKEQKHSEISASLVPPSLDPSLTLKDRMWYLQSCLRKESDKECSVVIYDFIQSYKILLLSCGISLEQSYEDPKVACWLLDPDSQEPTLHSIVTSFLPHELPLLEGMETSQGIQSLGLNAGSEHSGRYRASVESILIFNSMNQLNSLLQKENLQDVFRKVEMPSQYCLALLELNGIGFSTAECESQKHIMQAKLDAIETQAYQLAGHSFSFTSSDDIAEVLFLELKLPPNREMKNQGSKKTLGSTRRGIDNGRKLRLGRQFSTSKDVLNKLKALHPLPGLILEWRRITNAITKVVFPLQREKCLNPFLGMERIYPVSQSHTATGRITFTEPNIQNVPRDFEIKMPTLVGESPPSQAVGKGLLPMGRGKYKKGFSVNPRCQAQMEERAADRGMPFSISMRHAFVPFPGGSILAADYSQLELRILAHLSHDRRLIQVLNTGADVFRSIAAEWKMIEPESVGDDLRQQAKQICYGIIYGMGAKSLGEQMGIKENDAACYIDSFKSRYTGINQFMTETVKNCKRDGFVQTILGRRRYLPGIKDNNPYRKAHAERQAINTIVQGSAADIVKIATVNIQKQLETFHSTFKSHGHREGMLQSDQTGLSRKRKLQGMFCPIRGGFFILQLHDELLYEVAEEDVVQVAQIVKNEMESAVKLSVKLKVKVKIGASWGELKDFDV
Compound | remaining activity [%]
CC(C)CC(=O)N[C@H](C(=O)N[C@H](C(=O)N[C@@H](CC(C)C)[C@@H](O)CC(=O)N[C@@H](C)C(=O)N[C@@H](CC(C)C)[C@@H](O)CC(=O)O)C(C)C)C(C)C | 95.6
O=c1cc(O)cc(/C=C/c2ccc(O)c(O)c2)o1 | 92.7
CCCNS(=O)(=O)Nc1ncnc(OCCOc2ncc(Br)cn2)c1-c1ccc(Br)cc1 | 88.7
NC(=O)OCC(COC(N)=O)c1ccccc1 | 103
NC(=O)OCC(O)COc1ccc(Cl)cc1 (stereo not shown) | 92.6
Clc1ccc2c(N3CCN(CCCN4CCN(c5ccnc6cc(Cl)ccc56)CC4)CC3)ccnc2c1 | 92.5
CN1CCCC(CC2c3ccccc3Sc3ccccc32)C1 (stereo not shown) | 108
CC(C)(C)NC[C@H](O)COc1ccccc1C1CCCC1 | 96.8

Series 2 — observed: cell-free assay; concentration: 0.5 µM
Compound: N#CCCc1ccc2c(c1)-c1[nH]c3ccc([N+](=O)[O-])cc3c1CC(=O)N2
target | remaining signal
Cyclin-dependent kinase 2, with cyclin E (CDK2, Homo sapiens, UniProt P24941) | 13.4%
DYRK4 (Homo sapiens, UniProt Q9NR20) | 100%
VRK1 (Homo sapiens, UniProt Q99986) | 97.5%
RPS6KB2 (Homo sapiens, UniProt Q9UBS0) | 96.1%
ARAF (Homo sapiens, UniProt P10398) | 94.5%

Series 3 — observed: RNA clamping; technique: fluorescence polarization; concentration: concentration not given; notes: mean of two replicates; added: FAM-labelled poly r(AG)8 RNA
Target: Eukaryotic initiation factor 4A-III (Homo sapiens, UniProt P38919)
UniProt P38919, sequence (whole entry, looked up): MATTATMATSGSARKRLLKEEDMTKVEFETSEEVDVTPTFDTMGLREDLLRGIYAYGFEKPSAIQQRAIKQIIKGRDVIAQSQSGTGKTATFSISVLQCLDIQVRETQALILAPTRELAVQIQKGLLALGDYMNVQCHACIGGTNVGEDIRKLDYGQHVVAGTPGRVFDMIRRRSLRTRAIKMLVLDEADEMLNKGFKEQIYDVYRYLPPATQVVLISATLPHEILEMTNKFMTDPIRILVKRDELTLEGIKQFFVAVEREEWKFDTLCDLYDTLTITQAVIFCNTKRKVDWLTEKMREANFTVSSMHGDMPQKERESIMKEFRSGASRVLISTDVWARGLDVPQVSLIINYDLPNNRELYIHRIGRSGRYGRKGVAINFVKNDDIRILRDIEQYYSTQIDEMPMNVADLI
Compound | fluorescence polarization change [mP]
COc1ccc([C@@]23Oc4cc(OC)cc(OC)c4[C@]2(NCc2ccccc2)C(=O)C[C@H]3c2ccccc2)cc1 | 5.1
CCCc1ccc(C(=O)[C@H]2[C@@H](O)[C@@]3(O)c4c(OC)cc(OC)cc4O[C@@]3(c3ccc(OC)cc3)[C@@H]2c2ccccc2)o1 | 6.5
C=CCn1c(-c2ccccc2)nc2c(c1=O)[C@@H](c1ccccc1)[C@]1(c3ccc(OC)cc3)Oc3cc(OC)cc(OC)c3[C@]21O | 9.2
CCCN[C@@]12C(=O)[C@H](C(=O)N(C)C)[C@@H](c3ccccc3)[C@]1(c1ccc(OC)cc1)Oc1cc(OC)cc(OC)c12 | 1.2
COc1ccc([C@@]23Oc4cc(OC)cc(OC)c4[C@@]24NC(C)=N[C@@]4(O)[C@H](C(C)=O)[C@H]3c2ccccc2)cc1 | 28
COC(=O)[C@H]1C(=O)[C@@]2(NCCCC(OC)OC)c3c(OC)cc(OC)cc3O[C@@]2(c2ccc(OC)cc2)[C@@H]1c1ccccc1 | 16.4
COc1ccc([C@@]23Oc4cc(OC)cc(OC)c4[C@]2(O)[C@H](O)[C@H](C(=O)c2cc4cccc(OC)c4o2)[C@H]3c2ccccc2)cc1 | 4.5
COC(=O)[C@@H]1[C@@H](c2ccccc2)[C@]2(c3ccc(OC)cc3)Oc3cc(OC)cc(OC)c3[C@@]23NC(C(C)C)=N[C@@]13O | 29.6

Further values, each from its own experiment
SMILES | target | observed | technique | concentration | measurement | value
Cn1cncc1[C@](O)(COc1ccc(C#N)cc1-c1ccc(OC(F)(F)F)cc1)c1ccc(C#N)cc1 | Mast/stem cell growth factor receptor Kit (KIT, Homo sapiens, UniProt P10721, D816V) | cell-free assay | competition with immobilised ligand | 1 µM | remaining binding | 85%

For quick reference, copied from above (further values, each from its own experiment):
SMILES | target | observed | technique | concentration | measurement | value
Cn1cncc1[C@](O)(COc1ccc(C#N)cc1-c1ccc(OC(F)(F)F)cc1)c1ccc(C#N)cc1 | Mast/stem cell growth factor receptor Kit (KIT, Homo sapiens, UniProt P10721, D816V) | cell-free assay | competition with immobilised ligand | 1 µM | remaining binding | 85%
